Published values pooled from the literature.
Each line is one published result; not all experiments were run side by side. Values joined by “and” are separate records of one study, mostly repeats; a detail may differ. ± gives the spread as reported.

Compound	target	test	test system	setting	how to read	endpoint	value
O=C(Nc1cccc2c(=O)cc(-c3nnn[nH]3)oc12)c1ccc(OCCCCc2ccccc2)cc1	LRRC8A/LRRC8C (Homo sapiens, UniProt Q8IWT6+Q8TDW0, M48D/T48D)	ion current, whole-cell patch clamp	HCT LRRC8-/- cells	3 µM, -100 mV, T48D/M48D heteromers	–	inhibition	1.33% and 15.6% and 2.55%
O=C1CCC(N2Cc3cc(NC(=O)c4cn5ccccc5n4)ccc3C2=O)C(=O)N1 (stereo not drawn)	Cereblon/Casein kinase I alpha (CSNK1A1/CRBN, Homo sapiens, UniProt P48729+Q96SW2)	degrader, Western blot	MOLT-4	5 h	–	concentration for maximal degradation	100 nM
O=C(CN(Cc1ccccc1)S(=O)(=O)c1ccc(F)cc1)Nc1cccc(Cl)c1Cl	Sodium channel protein type 8 subunit alpha, C-terminal domain (SCN8A, Homo sapiens, UniProt Q9UQD0)	binding, protein thermal shift	–	25 µM	–	delta Tm	6.8 °C
Cc1cc(Nc2cc(N3CCN(C)CC3)nc(Sc3ccc(NC(=O)C4CC4)cc3)n2)[nH]n1	ROCK2 (Homo sapiens, UniProt O75116)	kinase activity, KinaseProfiler	–	0.03 µM, species human	reference: control	remaining activity	105%
NCCCC(=O)O	SLC6A6 (Homo sapiens, UniProt P31641, G62A)	binding, microscale thermophoresis	–	30.5 nM, room temperature, added: 50 nM labelled protein	higher = more binding	normalised MST signal	0.0239
O=C(O)c1ccc(-c2ccc3[nH]ccc3c2)cn1	Tumor necrosis factor receptor superfamily member 1A, extracellular domain (Homo sapiens, UniProt P19438)	binding, SPR	–	–	–	ligand efficiency	0.26
CC1CCCN(C(=O)c2cc3ncccn3n2)C1 (stereo not drawn)	FBXW7 (Homo sapiens, UniProt Q969H0)	binding, affinity selection mass spectrometry	–	–	reference: other proteins in batch	fold enrichment	1.23
FC(F)(F)c1cccc(-c2n[nH]c(=S)o2)c1	P2X purinoceptor 2 (P2RX2, Homo sapiens, UniProt Q9UBL9)	calcium mobilization	MCF7 stably transfected	100 µM, added: ATP 100 µM	–	fluorescence increase	85.4 ± 2.45%
CC(=O)N[C@H](C(=O)N[C@@H](CC(N)=O)C(=O)N[C@@H](CCCCN)C(=O)N1CCC[C@H]1C(=O)N[C@@H](CC(C)C)C(=O)N1CCC[C@H]1C(=O)N1CCC[C@H]1C(=O)N[C@@H](CC(C)C)C(=O)N1CCC[C@H]1C(=O)N[C@H](C(=O)N[C@@H](C)C(N)=O)C(C)C)C(C)C	High osmolarity signaling protein SHO1, SH3 domain (SHO1, Saccharomyces cerevisiae, UniProt P40073)	ligand binding, FTIR spectroscopy, item: asymmetric stretch band C	–	pH 7.0, SHO1 complex, added: 4 mM peptide	–	wavenumber	2253.6 ± 1 cm⁻¹
c1coc(-c2n[nH]cc2-c2ccnc3ccccc23)c1	Mitosis inhibitor protein kinase SWE1 (SWE1, Candida albicans, UniProt Q5AP97)	kinase binding, MIB/MS competition	Candida albicans lysate	10 µM	reference: DMSO, negative = stronger binding	log2 fold change	0.09
CN1C(C(=O)Nc2ccccn2)=C(O)c2sc(Cl)cc2S1(=O)=O	Nuclear receptor subfamily 4 group A member 1 (NR4A1, Homo sapiens, UniProt P22736)	reporter gene, NBRE reporter full-length	–	30 µM	reference: vehicle	activation	0.91 fold
Nc1nnc(-c2cccc(Cl)c2Cl)c(N)n1	SCN5A (Homo sapiens, UniProt Q14524)	sodium current block kinetics	–	25 µM	–	fast recovery time constant	0.79 s

A few entries again:
Compound	target	test	test system	setting	how to read	endpoint	value
O=C(O)c1ccc(-c2ccc3[nH]ccc3c2)cn1	Tumor necrosis factor receptor superfamily member 1A, extracellular domain (Homo sapiens, UniProt P19438)	binding, SPR	–	–	–	ligand efficiency	0.26
